Measurements collected from several papers.
Each numbered part is a random draw from the data of one study; scales do not carry over between parts.
UniProt Q86Y07, sequence (whole entry, looked up): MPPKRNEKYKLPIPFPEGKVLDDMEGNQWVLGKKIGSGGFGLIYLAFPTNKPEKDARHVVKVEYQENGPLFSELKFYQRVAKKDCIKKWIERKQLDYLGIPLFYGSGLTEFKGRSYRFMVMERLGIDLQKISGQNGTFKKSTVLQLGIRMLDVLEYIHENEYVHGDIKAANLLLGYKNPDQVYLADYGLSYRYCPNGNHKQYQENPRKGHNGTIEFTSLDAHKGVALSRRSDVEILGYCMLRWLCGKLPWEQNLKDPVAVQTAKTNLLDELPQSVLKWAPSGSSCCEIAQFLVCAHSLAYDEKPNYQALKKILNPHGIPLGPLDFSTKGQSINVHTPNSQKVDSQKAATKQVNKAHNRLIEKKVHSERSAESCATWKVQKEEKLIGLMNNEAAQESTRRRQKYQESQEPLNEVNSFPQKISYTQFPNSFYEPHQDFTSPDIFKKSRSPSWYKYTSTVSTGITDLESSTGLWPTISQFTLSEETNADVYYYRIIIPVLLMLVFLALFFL
UniProt Q9HC98, sequence (whole entry, looked up): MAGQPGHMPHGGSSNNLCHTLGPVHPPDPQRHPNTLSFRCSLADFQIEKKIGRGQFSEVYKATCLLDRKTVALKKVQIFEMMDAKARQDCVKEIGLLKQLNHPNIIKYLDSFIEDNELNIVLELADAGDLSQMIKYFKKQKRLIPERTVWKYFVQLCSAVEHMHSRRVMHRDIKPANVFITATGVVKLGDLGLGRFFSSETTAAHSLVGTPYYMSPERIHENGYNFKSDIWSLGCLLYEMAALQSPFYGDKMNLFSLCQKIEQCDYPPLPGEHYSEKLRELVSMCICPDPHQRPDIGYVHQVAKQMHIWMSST
UniProt P07949, sequence (whole entry, unmodified, looked up): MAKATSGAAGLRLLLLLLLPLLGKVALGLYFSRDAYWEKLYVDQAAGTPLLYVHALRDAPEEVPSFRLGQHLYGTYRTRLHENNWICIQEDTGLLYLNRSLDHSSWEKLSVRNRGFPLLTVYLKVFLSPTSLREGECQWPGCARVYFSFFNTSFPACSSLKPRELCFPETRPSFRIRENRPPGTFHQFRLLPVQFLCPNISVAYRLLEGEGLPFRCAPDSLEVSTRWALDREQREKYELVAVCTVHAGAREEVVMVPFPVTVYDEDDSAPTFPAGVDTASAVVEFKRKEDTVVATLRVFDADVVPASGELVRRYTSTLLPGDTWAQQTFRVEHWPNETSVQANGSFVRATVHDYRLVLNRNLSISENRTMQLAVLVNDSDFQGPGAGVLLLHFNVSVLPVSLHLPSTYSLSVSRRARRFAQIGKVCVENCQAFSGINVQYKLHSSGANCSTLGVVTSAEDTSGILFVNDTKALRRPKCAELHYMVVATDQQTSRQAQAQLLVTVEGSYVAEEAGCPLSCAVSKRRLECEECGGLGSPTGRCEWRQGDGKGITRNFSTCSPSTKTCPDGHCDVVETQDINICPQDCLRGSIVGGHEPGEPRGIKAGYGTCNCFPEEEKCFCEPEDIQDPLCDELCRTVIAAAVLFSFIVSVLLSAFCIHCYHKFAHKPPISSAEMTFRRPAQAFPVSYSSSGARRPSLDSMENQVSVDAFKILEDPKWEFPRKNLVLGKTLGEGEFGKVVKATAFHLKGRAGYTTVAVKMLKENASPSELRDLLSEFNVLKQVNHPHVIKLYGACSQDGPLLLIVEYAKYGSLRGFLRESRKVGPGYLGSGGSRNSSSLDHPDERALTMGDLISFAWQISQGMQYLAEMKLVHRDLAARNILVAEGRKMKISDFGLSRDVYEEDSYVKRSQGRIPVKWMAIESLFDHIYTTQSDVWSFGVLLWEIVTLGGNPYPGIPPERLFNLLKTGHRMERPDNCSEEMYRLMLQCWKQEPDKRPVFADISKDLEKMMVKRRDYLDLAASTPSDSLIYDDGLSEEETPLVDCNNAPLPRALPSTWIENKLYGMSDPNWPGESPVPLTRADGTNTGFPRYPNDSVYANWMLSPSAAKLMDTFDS
UniProt P48730, sequence (whole entry, looked up): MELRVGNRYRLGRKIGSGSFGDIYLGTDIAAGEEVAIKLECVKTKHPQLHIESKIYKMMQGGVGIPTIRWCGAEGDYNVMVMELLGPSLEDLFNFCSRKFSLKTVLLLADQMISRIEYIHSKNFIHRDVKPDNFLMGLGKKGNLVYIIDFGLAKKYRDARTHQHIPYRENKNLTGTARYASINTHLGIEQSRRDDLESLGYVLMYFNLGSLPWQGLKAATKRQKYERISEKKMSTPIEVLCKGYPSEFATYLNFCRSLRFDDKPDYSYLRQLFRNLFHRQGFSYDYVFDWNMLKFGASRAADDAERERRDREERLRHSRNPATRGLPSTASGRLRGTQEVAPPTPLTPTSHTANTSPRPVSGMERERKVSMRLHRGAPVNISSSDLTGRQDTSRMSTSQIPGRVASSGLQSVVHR
UniProt O94921, sequence (whole entry, looked up): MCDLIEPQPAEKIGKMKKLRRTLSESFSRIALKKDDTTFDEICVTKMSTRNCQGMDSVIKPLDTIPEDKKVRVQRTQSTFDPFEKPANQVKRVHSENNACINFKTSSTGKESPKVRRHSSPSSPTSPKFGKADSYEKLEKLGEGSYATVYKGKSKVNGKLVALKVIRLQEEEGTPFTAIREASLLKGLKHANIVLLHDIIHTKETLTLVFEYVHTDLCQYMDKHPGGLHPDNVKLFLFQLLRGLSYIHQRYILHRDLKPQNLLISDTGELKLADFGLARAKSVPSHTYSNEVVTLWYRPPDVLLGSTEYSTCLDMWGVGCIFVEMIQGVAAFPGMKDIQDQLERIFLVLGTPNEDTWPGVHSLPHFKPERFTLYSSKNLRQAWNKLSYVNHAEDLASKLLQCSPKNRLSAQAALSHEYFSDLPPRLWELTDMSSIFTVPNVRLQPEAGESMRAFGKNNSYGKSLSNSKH
UniProt Q9HBY8, sequence (whole entry, looked up): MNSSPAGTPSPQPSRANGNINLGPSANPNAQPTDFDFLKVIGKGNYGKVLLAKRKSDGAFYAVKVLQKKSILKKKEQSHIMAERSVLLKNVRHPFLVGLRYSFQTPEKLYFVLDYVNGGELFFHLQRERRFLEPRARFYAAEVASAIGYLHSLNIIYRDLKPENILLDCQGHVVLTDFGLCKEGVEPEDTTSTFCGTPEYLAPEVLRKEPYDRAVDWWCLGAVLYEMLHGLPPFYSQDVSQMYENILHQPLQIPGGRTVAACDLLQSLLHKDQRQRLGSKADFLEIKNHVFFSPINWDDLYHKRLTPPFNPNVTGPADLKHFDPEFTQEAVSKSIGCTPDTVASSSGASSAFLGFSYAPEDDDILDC
UniProt P08069, sequence (whole entry, looked up): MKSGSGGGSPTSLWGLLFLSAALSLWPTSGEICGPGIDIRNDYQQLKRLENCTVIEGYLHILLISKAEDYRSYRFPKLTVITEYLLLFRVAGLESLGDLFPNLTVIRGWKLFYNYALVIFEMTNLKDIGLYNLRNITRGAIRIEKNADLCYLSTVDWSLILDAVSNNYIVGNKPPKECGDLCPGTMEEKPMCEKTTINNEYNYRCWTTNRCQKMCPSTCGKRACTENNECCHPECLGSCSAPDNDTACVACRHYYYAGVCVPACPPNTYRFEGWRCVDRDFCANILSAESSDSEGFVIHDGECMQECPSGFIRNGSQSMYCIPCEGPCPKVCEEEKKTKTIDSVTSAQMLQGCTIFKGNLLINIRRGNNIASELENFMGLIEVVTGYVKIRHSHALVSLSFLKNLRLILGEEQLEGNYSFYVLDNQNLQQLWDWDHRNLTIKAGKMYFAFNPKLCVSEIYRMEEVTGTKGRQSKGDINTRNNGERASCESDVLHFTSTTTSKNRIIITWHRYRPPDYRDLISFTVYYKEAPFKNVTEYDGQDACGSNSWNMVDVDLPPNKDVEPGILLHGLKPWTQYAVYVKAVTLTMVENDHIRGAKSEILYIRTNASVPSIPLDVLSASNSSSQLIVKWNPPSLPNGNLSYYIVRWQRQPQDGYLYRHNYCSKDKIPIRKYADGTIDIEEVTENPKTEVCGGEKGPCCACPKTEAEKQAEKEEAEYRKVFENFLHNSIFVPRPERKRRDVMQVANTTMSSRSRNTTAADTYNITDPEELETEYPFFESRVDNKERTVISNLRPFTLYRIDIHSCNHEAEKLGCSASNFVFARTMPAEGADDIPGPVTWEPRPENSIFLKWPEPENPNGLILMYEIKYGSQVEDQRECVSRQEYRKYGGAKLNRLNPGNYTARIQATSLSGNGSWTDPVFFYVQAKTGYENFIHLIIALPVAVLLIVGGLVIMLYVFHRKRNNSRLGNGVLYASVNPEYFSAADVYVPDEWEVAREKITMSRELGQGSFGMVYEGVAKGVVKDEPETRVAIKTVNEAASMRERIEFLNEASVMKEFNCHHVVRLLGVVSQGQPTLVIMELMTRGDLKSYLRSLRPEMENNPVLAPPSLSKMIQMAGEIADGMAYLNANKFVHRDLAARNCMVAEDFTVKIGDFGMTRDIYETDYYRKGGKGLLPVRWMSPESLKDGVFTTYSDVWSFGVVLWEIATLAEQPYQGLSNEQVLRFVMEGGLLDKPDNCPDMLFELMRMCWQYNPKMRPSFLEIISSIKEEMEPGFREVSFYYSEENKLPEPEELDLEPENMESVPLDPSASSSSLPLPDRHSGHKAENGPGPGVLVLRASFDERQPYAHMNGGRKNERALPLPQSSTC
UniProt Q14012, sequence (whole entry, looked up): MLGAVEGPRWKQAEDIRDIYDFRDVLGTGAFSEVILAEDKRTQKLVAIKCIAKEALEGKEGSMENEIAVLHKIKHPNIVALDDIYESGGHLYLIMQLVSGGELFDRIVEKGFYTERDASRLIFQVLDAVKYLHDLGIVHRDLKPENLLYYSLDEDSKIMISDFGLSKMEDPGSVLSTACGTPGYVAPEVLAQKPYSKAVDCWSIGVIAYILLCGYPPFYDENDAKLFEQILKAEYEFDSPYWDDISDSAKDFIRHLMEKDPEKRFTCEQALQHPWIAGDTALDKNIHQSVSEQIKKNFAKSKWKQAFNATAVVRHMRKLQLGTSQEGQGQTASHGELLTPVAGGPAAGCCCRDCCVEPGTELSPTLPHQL

Sample 1
Cell line: HaCaT
Concentration: 100 µM
Time: 36 h
Measurement: viability
SMILES = C[C@@H]1C[C@H]2[C@@H]3CCC4=CC(=O)C=C[C@]4(C)[C@@]3(Cl)[C@@H](O)C[C@]2(C)[C@@]1(OC(=O)c1ccco1)C(=O)CCl; result = 13.7%
SMILES = CN1C(C(=O)Nc2ccccn2)=C(O)c2ccccc2S1(=O)=O; result = 55.6%
SMILES = CC(C)NCC(O)c1cc(O)cc(O)c1 (centres unmarked); result = 79.6%
SMILES = Cc1nc2c([nH]1)-c1ccccc1N(C(=O)c1ccc(NC(=O)c3ccccc3-c3ccccc3)cc1)CC2; result = 14%
SMILES = COC(=O)Nc1nc2ccc(Sc3ccccc3)cc2[nH]1; result = 20.1%
SMILES = N=C(N/N=C/c1ccc(Cl)cc1)N/N=C/c1ccc(Cl)cc1; result = 7.81%
SMILES = COc1ccccc1N1CCN(CC(O)COc2cccc3ccccc23)CC1 (centres unmarked); result = 4.32%

Sample 2
SMILES: CNc1cc2c(Nc3cccc(Br)c3)ncnc2cn1
Read-out: enzyme activity
Action: inhibitor
Concentration: 0.5 µM
Baseline: control
Measurement: remaining activity
target = SRPK1 (Homo sapiens, UniProt Q96SB4); result = 90.7%
target = FLT1 (Homo sapiens, UniProt P17948); result = 83.5%
target = TEC (Homo sapiens, UniProt P42680); result = 109%
target = JAK1 (Homo sapiens, UniProt P23458); result = 79.9%
target = CLK1 (Homo sapiens, UniProt P49759); result = 106%
target = Cyclin-dependent kinase 2, with cyclin E (CDK2, Homo sapiens, UniProt P24941); result = 88.6%
target = CSNK1E (Homo sapiens, UniProt P49674); result = 84.8%
target = SIK2 (Homo sapiens, UniProt Q9H0K1); result = 98.3%
target = MUSK (Homo sapiens, UniProt O15146); result = 81.3%
target = RPS6KA3 (Homo sapiens, UniProt P51812); result = 86.6%
target = CAMK1 (Homo sapiens, UniProt Q14012); result = 92.3%
target = MAP3K20 (Homo sapiens, UniProt Q9NYL2); result = 82.3%
target = PAK1 (Homo sapiens, UniProt Q13153); result = 94.9%
target = IGF1R (Homo sapiens, UniProt P08069); result = 115%
target = CLK2 (Homo sapiens, UniProt P49760); result = 88.3%
target = TYRO3 (Homo sapiens, UniProt Q06418); result = 98.8%
target = SGK2 (Homo sapiens, UniProt Q9HBY8); result = 96.6%
target = CSNK1D (Homo sapiens, UniProt P48730); result = 98.7%
target = EPHA2 (Homo sapiens, UniProt P29317); result = 95.3%
target = PRKCQ (Homo sapiens, UniProt Q04759); result = 110%
target = EPHA6 (Homo sapiens, UniProt Q9UF33); result = 70%

Sample 3
SMILES: CN(C)C(=O)Cn1cc(-c2nc(C3(c4ccc(-c5cnc(N)nc5)cc4)CC3)no2)cn1
Read-out: cell-free assay
Method: competition with immobilised ligand
Concentration: 1 µM
Measurement: remaining binding
target = DDR2 (Homo sapiens, UniProt Q16832); result = 100%
target = RET (Homo sapiens, UniProt P07949, M918T); result = 99%
target = VRK2 (Homo sapiens, UniProt Q86Y07); result = 90%
target = NEK6 (Homo sapiens, UniProt Q9HC98); result = 81%
target = CAMK2D (Homo sapiens, UniProt Q13557); result = 99%
target = Aurora kinase A (AURKA, Homo sapiens, UniProt O14965); result = 82%
target = CDK14 (Homo sapiens, UniProt O94921); result = 100%

Sample 4
Species: mouse
Medium: microsomes or S9
Concentration: 2 µM
Time: 0.5 h
Measurement: remaining compound
SMILES = CCOC(=O)c1[nH]c(=O)n(CCS(C)(=O)=O)c1C; result = 75%
SMILES = O=C(Nc1nn[nH]n1)c1cc(-c2cccs2)[nH]n1; result = 92.2%
SMILES = Cc1c(-c2nnc(Cc3ccccc3)o2)nnn1-c1ccc(C(C)C)cc1; result = 10.8%
SMILES = Cc1ccc(C(C)C)c(OCC(=O)NC2=NCC(=O)N2c2ccccc2)c1; result = < 1%
SMILES = CCN1CCn2c1nc(N1CCOCC1)nc2=O; result = > 99.9%
SMILES = CCN(c1ccccc1)c1nc(N(CC)c2ccccc2)[nH]c(=O)n1; result = 68.5%
SMILES = CC(C)=CCn1c(CO)nc2c1c(=O)n(C)c(=O)n2C; result = 65.7%
SMILES = COc1ccc(C(=O)N2CCC(Cc3noc(C4CCOCC4)n3)C2)cc1F (centres unmarked); result = 53.1%
SMILES = O=C(c1cccs1)C1C(C(=O)c2ccco2)C2(C(=O)Nc3ccccc32)C2C=Cc3ccccc3N12 (centres unmarked); result = 46.8%
SMILES = COc1cccc(-c2[nH]ncc2CNC2(c3ccccc3F)CCCC2)c1; result = 3.61%
SMILES = CCO[C@H]1CN(Cc2ccc3[nH]ccc3c2)C[C@@H]1O; result = 57.7%
SMILES = c1ccc2c(Sc3nccc4ccccc34)nccc2c1; result = 1.2%
